Published values from different studies.
Lines come from different studies, so protocols differ. Values joined by “and” are separate records of one study, mostly repeats; a detail may differ. ± gives the spread as reported.
Urease: Urease (Canavalia ensiformis, UniProt P07374)
Sequence of UniProt P07374 (whole entry, looked up): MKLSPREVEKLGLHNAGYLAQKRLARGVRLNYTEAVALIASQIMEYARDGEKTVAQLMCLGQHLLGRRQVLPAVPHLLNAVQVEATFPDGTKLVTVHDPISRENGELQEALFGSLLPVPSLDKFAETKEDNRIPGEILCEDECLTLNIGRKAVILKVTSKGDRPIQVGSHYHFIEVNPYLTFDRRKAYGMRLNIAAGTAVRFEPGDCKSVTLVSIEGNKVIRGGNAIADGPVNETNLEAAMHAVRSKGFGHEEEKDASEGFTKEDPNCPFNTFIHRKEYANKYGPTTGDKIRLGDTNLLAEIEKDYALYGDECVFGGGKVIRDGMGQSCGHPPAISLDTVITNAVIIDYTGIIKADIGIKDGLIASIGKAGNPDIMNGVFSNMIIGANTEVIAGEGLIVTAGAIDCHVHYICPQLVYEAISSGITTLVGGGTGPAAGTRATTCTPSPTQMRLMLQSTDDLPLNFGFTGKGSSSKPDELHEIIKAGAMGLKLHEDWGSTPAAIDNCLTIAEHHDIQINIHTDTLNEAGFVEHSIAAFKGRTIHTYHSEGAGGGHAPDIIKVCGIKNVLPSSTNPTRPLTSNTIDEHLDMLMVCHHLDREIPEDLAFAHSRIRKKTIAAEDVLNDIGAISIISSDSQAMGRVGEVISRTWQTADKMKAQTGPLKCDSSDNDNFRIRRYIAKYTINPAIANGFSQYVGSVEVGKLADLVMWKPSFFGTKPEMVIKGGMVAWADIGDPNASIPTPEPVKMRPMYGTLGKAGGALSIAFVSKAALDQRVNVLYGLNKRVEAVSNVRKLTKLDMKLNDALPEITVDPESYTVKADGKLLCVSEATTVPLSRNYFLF
SLCO1B1: Solute carrier organic anion transporter family member 1B1 (SLCO1B1, Homo sapiens, UniProt Q9Y6L6)
Sequence of UniProt Q9Y6L6 (whole entry, looked up): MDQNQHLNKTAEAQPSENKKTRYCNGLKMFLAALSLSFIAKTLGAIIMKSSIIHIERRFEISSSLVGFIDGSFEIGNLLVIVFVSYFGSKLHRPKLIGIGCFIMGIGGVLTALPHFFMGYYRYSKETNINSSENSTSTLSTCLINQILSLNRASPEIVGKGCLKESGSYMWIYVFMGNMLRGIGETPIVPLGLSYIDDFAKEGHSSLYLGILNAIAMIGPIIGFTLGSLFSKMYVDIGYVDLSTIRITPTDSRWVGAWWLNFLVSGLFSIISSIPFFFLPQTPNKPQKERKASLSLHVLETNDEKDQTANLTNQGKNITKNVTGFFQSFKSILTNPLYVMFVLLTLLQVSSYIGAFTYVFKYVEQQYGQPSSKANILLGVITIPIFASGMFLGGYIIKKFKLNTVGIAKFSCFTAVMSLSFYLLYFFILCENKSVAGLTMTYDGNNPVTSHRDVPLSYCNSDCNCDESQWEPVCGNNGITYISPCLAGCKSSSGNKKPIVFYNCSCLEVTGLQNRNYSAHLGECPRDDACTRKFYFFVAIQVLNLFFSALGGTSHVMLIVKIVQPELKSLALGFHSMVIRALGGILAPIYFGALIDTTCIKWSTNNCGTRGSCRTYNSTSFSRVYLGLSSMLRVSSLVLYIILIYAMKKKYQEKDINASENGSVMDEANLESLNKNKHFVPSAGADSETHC
KCNJ13 M125R: Inward rectifier potassium channel 13 (KCNJ13, Homo sapiens, UniProt O60928, M125R)
Sequence of UniProt O60928 (whole entry, unmodified, looked up): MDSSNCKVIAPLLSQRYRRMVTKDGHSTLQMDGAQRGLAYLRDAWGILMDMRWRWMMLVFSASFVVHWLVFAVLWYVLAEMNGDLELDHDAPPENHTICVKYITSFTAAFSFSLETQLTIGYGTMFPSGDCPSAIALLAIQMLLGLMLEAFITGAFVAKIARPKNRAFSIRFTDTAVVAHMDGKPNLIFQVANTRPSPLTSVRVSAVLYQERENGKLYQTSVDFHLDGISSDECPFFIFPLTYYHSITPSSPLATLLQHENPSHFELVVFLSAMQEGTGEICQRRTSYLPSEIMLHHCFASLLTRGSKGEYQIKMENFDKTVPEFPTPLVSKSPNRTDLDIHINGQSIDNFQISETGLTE
Kir1 channel protein: Kir1 channel protein (Aedes aegypti, UniProt L0EQS9)
Sequence of UniProt Q96S37 (whole entry, looked up): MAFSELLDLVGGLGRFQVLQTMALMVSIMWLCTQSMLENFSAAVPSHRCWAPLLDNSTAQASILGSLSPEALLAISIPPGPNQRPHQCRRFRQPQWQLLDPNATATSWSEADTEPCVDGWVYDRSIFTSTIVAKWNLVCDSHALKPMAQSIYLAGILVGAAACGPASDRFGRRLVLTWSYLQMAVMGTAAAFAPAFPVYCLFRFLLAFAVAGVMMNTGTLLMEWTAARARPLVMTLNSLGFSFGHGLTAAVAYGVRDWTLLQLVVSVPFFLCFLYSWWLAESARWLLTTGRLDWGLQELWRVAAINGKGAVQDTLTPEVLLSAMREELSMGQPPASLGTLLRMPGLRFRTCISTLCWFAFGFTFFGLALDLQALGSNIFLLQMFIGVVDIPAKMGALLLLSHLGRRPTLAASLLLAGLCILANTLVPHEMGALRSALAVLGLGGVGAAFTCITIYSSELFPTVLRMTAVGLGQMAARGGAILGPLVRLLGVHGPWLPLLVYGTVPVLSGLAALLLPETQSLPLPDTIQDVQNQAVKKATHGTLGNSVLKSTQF
Sequence of UniProt O95551 (whole entry, looked up): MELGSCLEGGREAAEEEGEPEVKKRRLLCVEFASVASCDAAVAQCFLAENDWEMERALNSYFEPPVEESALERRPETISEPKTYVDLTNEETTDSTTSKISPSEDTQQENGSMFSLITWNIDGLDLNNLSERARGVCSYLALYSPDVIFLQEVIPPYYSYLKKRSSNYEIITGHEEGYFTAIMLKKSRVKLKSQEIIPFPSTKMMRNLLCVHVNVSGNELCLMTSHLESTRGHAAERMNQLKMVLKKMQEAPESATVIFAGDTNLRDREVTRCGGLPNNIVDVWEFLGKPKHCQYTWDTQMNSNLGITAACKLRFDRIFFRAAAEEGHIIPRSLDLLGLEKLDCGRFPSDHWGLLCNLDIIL
Sequence of UniProt P05979 (whole entry, looked up): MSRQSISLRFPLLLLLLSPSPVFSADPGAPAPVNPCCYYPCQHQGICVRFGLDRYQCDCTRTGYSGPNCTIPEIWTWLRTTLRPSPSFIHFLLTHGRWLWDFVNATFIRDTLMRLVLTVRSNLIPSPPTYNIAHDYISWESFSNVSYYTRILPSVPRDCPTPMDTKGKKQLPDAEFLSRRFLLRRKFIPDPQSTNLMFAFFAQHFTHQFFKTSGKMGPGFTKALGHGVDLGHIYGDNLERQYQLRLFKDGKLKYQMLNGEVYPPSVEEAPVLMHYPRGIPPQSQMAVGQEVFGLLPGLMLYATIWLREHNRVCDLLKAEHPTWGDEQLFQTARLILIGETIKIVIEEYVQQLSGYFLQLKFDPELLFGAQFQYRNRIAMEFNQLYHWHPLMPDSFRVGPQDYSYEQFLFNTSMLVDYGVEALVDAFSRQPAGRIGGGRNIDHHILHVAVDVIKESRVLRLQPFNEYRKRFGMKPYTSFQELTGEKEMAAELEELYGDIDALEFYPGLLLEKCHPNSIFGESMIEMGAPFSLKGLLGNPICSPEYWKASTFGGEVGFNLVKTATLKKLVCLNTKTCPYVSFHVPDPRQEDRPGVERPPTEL
Sequence of UniProt P07384 (whole entry, looked up): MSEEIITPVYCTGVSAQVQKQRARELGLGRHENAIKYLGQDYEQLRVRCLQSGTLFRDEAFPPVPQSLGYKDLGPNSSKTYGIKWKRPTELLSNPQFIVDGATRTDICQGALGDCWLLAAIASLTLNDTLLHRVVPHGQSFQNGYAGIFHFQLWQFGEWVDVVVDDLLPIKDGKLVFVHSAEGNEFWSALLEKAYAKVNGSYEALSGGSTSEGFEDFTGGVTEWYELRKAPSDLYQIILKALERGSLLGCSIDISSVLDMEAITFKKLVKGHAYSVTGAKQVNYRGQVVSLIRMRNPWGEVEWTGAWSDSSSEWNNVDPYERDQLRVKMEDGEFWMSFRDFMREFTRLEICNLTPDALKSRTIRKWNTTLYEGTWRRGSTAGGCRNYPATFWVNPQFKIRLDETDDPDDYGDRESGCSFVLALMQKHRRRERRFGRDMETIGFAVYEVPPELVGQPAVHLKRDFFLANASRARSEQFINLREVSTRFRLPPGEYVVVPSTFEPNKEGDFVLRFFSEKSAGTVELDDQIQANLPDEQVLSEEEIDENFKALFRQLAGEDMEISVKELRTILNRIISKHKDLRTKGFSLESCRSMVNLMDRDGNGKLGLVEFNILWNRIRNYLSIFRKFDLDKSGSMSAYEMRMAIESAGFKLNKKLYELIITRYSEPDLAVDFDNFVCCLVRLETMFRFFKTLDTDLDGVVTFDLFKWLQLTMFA
Sequence of UniProt Q96D96 (whole entry, unmodified, looked up): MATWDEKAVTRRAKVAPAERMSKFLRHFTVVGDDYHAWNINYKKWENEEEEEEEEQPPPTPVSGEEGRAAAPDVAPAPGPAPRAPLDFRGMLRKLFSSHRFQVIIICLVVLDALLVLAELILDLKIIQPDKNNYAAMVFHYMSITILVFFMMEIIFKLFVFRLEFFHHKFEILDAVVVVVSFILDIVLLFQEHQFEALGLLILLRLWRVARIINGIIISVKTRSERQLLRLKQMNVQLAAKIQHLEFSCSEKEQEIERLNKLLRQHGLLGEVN
Sequence of UniProt P48050 (whole entry, looked up): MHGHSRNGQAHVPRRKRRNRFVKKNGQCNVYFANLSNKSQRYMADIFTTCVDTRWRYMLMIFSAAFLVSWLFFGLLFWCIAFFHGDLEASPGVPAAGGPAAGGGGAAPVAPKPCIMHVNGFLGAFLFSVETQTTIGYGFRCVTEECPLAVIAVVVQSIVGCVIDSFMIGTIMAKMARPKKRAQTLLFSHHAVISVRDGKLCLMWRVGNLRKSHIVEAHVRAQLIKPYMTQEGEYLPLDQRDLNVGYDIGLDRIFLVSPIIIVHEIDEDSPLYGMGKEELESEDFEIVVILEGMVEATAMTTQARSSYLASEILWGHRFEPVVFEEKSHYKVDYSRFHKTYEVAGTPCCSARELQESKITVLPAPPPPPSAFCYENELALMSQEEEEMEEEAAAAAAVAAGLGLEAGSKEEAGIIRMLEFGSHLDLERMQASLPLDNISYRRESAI

| SMILES | target | test | system | setting | IC50 |
| --- | --- | --- | --- | --- | --- |
| O=c1oc2c(O)c(O)cc3c(=O)oc4c(O)c(O)cc1c4c23 | ALKBH2 (Homo sapiens, UniProt Q6NS38) | 1-methyladenine repair, inhibitor, HPLC | – | 1 h, 37 °C, added: ssDNA 16mer 5 µM | 28.3 µM |
| CC(C)=CCC/C(C)=C/COc1c2ccoc2cc2oc(=O)ccc12 | SLCO2B1 (Homo sapiens, UniProt O94956) | transporter uptake, inhibitor, radiometric | MDCK-II | 3 min, pH 6 | > 300 µM |
| O=[N+]([O-])c1cccc(NC(=S)N2CCc3ccccc3C2)c1 | Urease | enzyme activity, inhibitor, absorbance | – | – | 33.2 µM |
| C#CCOc1ccc2oc(-c3ccccc3)cc(=O)c2c1 | Cytochrome P450 2B1 (Cyp2b1, Rattus norvegicus, UniProt P00176) | enzyme activity, inhibitor | supersomes | added: pentoxyresorufin 5 µM | > 10 µM |
| COc1cc2oc(-c3ccc(O)cc3O)c(CC=C(C)C)c(=O)c2c(O)c1/C=C/C(C)C | Sialidase A (nanA, Streptococcus pneumoniae, UniProt P62575) | neuraminidase activity, inhibitor, chemiluminescence | Streptococcus pneumoniae, total protein of strains | – | 0.49 µM |
| Nc1ncnc2c1ncn2[C@@H]1O[C@H](COP(=O)(O)OP(=O)(O)OC[C@H]2OC(O)[C@H](O)[C@@H]2O)[C@@H](O)[C@H]1O (some centres unmarked) | SARM1 (Homo sapiens, UniProt Q6SZW1) | enzyme activity, inhibitor, fluorescence | – | with preincubation | 129 µM |
| COc1cccc2c1C(=O)c1c(O)c3c(c(O)c1C2=O)C[C@@](O)(C(=O)CO)C[C@@H]3O[C@H]1C[C@H](N)[C@H](O)[C@H](C)O1 | DNA | DNA binding, methyl green displacement | – | – | 31.5 ± 1.5 µM |
| CC(O)c1cc(C(=O)N[C@@H](C)Cn2ccc(-c3ccc(C#N)c(Cl)c3)n2)[nH]n1 (some centres unmarked) | SLCO1B1 | transporter uptake, inhibitor | – | – | 16.8 µM |
| [Cl-].[Cl-].[Zn+2] | HVCN1 (Homo sapiens, UniProt Q96D96, D130H/H193A) | proton current, inhibitor, whole-cell voltage clamp | human cells | pH 6.5, test pulse 120 mV | 3.7 µM |
| CCc1oc2ccccc2c1C(=O)c1cc(C)c(O)c(C)c1 | SLC22A12 (Homo sapiens, UniProt Q96S37) | – | human cells | – | 7.5 µM and ~7.5 µM |
| COc1ccc(C(/C=C/CN2CCC[C@@H]2[C@H](O)C(=O)O)(c2ccc(OC)cc2)c2ccc(OC)cc2)cc1 | SLC6A1 (Homo sapiens, UniProt P30531) | [3H]GABA uptake, inhibitor | HEK293T | 120 min preincubation, estimated, added: [3H]GABA 30 nM | 212 µM |
| O=c1cc(-c2cccc3ccccc23)[nH][nH]1 | ALPL (Homo sapiens, UniProt P05186) | enzyme activity, inhibitor, luminescence | – | added: 1 M DEA, 50 µM CDP-star | 7.87 ± 0.853 µM |
| CN(C)c1ncc(O)cn1 | PTGS1 (Ovis aries, UniProt P05979) | enzyme activity, inhibitor | – | pH 8 | 18.4 µM |
| N#Cc1ccc(OCC(O)Cn2c(=N)n(Cc3ccccc3)c3ccccc32)cc1 (centres unmarked) | KCNJ13 M125R | ion flux, inhibitor | – | – | 19.7 µM |
| CCCCOC(=O)NS(=O)(=O)c1sc(CC(C)C)cc1-c1ccc(Cn2c(CC)nc3c(C)cc(C)nc32)cc1 | KCNK18 (Homo sapiens, UniProt Q7Z418) | ion flux, inhibitor | – | – | 11.5 µM |
| C[C@@H]1O[C@@H](OC[C@H]2O[C@@H](OCCc3ccc(O)c(O)c3)[C@H](O)[C@@H](O[C@@H]3O[C@@H](C)[C@H](O)[C@@H](O)[C@H]3O)[C@@H]2OC(=O)/C=C/c2ccc(O)c(O)c2)[C@H](O)[C@H](O)[C@H]1O | tyrosinase (Agaricus bisporus) | enzyme activity | – | 30 min, pH 6.8, 37 °C, added: L-DOPA | 503 µM |
| Cc1ccc(Cn2cc(COc3cccc(/C=N/NC(=O)COc4cc(C)cc5oc(=O)cc(C)c45)c3)nn2)cc1 | Urease | enzyme activity, inhibitor | – | – | 14.3 ± 2.15 µM |
| N=c1n(Cc2ccccc2)c2ccccc2n1CC(O)COc1ccccc1Cl (centres unmarked) | KCNJ13 M125R | ion flux, inhibitor | – | – | 5.33 µM |
| [Zn+2] | Trpv1 (Rattus norvegicus, UniProt O35433) | transporter uptake, inhibitor, radiometric | – | – | 27 µM |

| SMILES | target | test | system | setting | IC50 |
| --- | --- | --- | --- | --- | --- |
| Nc1ccccc1NC(=O)c1ccc(CNc2nccc(-c3cccnc3)n2)cc1 | HDAC (Lucilia cuprina egg nuclear extract) | enzyme activity, inhibitor, fluorometric | – | – | > 100 µM |
| O=C(NNC(=O)c1ccc(CNS(=O)(=O)c2ccc(F)c(Cl)c2)cc1)c1ccccc1 | Glutamate NMDA receptor; Grin1/Grin2a (Grin1/Grin2a, Rattus norvegicus, UniProt P35439+Q00959, V783D) | ion current, two-electrode voltage clamp | – | oocytes | 0.27 µM |
| Cc1nccn1CC(=O)c1ccc(O)c(O)c1 | Alkaline phosphatase, placental type (Homo sapiens, UniProt P05187) | enzyme activity, inhibitor, luminescence, CDP-star substrate | – | different enzyme concentrations | 14.3 µM |
| Nc1nc2ccc(OC(F)(F)F)cc2s1 | Scn2a (Mus musculus, UniProt B1AWN6) | sodium current, inhibitor | N1E-115 | 0.1 Hz stimulation | 67 ± 9 µM |
| N=c1n(Cc2ccc(Cl)cc2)c2ccccc2n1CC(O)COc1ccccc1 (centres unmarked) | Inward rectifier potassium channel 4 (Homo sapiens, UniProt P48050) | ion flux, inhibitor, fluorescence | – | – | 7.2 µM |
| Oc1cc(O)c2c(c1)O[C@H](c1ccc(O)c(O)c1)[C@H](O)[C@H]2c1c(O)cc(O)c2c1O[C@H](c1ccc(O)c(O)c1)[C@@H](O)C2 | alpha-glucosidase (Bacillus stearothermophilus) | inhibitor | – | 20 min, pH 6.8, 60 °C, added: pNPG substrate | 11.2 ± 1 µM |
| Cc1cccc(OCC(O)Cn2c(=N)n(Cc3ccccc3)c3ccccc32)c1 (centres unmarked) | KCNJ13 M125R | ion flux, inhibitor | – | – | 8 µM |
| CC(Nc1cc(N2CCN(S(=O)(=O)c3ccc(F)cc3)CC2)ccc1[N+](=O)[O-])c1nccs1 (centres unmarked) | Kir1 channel protein | ion flux, inhibitor, fluorescence | – | – | 1.5 µM |
| COc1ccccc1OCC(O)Cn1c(=N)n(Cc2ccccc2)c2ccccc21 (centres unmarked) | KCNJ13 M125R | ion flux, inhibitor | – | – | 8.5 µM |
| Cc1ncc(CNc2cc(N3CCN(S(=O)(=O)c4ccc(F)cc4)CC3)ccc2[N+](=O)[O-])o1 | Kir1 channel protein | ion flux, inhibitor, fluorescence | – | – | 0.609 µM |
| NC(=O)N1c2ccccc2C[C@H](O)c2ccccc21 | CACNA1H (Homo sapiens, UniProt O95180) | calcium current, inhibitor, whole-cell patch clamp | HEK293 | high-affinity component, added: holding -80 mV, step to -25 mV | 0.4 µM |
| CC(C)C[C@H](NC(=O)[C@@H]1O[C@H]1C(=O)O)C(=O)Nc1c(F)cccc1F | CAPN1 (Homo sapiens, UniProt P07384) | inhibitor, FRET | – | 20 min | > 1 µM |
| CCCS(=O)(=O)Nc1ccc(F)c(C(=O)c2c[nH]c3ncc(-c4ccc(Cl)cc4)cc23)c1F | SLCO1B1 | substrate uptake, inhibitor | HEK293 overexpressing SLCO1B1 | 3 min, 100% human plasma, added: [3H]-estradiol-17β-glucuronide 5 µM | 0.0017 µM |
| CC(/C=C/C(=O)NO)=C\[C@@H](C)C(=O)c1ccc(N(C)C)cc1 | histone deacetylase Plasmodium falciparum | – | Plasmodium falciparum, 3D7, nuclear extract | added: Ac-RGK(Ac)-AMC substrate | 0.003 to 0.004 µM and < 0.004 µM and 0.0039 µM |
| N#CC1=C(N)Oc2c(c(=O)[nH]c3ccccc23)C1c1cccc(OCc2cn(Cc3ccc(Cl)cc3)nn2)c1 (centres unmarked) | MAL12 (Saccharomyces cerevisiae S288c, UniProt P53341) | enzyme activity | – | – | 15.13 ± 0.15 µM |
| O=C1c2cc3c(cc2-c2c1c1ccc(F)cc1c(=O)n2CCCNCCO)OCO3 | TDP2 (Homo sapiens, UniProt O95551) | enzyme activity, inhibitor | – | – | 14.1 µM and 10.2 µM |
| CCOc1ccc(NC(=S)N2CCc3ccccc3C2)cc1 | Urease | enzyme activity, inhibitor, absorbance | – | – | 31.3 µM |
| NS(=O)(=O)Oc1ccc(CC(c2ccc(Cl)cc2)n2cncn2)cc1 (racemic) | Steryl-sulfatase (STS, Homo sapiens, UniProt P08842) | enzyme activity, inhibitor | JEG-3 | 1 h, added: [3H]oestrone sulfate | 2.23 ± 0.666 µM |
| CC12CC3CC(C)(C1)CC([N+](C)(C)C)(C3)C2 | Gria2 (Rattus norvegicus, UniProt P19491) | ion current, inhibitor, whole-cell patch-clamp | – | holding potential -60 mV, added: glutamate 10 mM, cyclothiazide 100 µM | 384 ± 8 µM |

Repeated from above:
| SMILES | target | test | system | setting | IC50 |
| --- | --- | --- | --- | --- | --- |
| CCOc1ccc(NC(=S)N2CCc3ccccc3C2)cc1 | Urease | enzyme activity, inhibitor, absorbance | – | – | 31.3 µM |
| NS(=O)(=O)Oc1ccc(CC(c2ccc(Cl)cc2)n2cncn2)cc1 (racemic) | Steryl-sulfatase (STS, Homo sapiens, UniProt P08842) | enzyme activity, inhibitor | JEG-3 | 1 h, added: [3H]oestrone sulfate | 2.23 ± 0.666 µM |
| CC12CC3CC(C)(C1)CC([N+](C)(C)C)(C3)C2 | Gria2 (Rattus norvegicus, UniProt P19491) | ion current, inhibitor, whole-cell patch-clamp | – | holding potential -60 mV, added: glutamate 10 mM, cyclothiazide 100 µM | 384 ± 8 µM |
